Results pooled from the literature.
Numbered parts are unrelated; each lists some results of a single study. Several values in a cell are separate wells, animals, samples, runs or records.
Chain of UniProt P07333 (whole entry, looked up): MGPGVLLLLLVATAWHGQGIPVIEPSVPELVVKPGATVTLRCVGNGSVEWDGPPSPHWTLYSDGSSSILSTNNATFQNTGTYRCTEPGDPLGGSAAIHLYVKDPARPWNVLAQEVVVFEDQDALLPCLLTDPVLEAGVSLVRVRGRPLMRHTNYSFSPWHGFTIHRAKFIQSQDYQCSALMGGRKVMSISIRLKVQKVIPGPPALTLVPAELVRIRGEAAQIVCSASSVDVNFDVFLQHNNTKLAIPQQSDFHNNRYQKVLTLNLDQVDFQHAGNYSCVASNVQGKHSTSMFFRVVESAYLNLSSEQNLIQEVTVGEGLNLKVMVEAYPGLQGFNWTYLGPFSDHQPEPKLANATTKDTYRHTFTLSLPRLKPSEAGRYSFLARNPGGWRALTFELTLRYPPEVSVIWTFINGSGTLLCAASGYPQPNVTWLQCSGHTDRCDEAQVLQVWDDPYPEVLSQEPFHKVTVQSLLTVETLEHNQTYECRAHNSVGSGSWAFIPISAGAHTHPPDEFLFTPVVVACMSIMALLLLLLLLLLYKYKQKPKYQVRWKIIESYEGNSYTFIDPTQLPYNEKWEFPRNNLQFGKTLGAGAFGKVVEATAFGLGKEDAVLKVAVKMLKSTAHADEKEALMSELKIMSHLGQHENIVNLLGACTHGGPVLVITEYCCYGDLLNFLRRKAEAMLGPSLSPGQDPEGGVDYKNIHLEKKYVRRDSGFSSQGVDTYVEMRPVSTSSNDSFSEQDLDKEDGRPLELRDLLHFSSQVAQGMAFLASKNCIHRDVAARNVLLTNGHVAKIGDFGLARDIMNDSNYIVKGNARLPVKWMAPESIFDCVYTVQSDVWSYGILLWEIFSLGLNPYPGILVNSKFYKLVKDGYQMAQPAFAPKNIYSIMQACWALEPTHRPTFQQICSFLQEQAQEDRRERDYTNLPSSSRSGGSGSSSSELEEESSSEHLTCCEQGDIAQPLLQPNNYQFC
Chain of UniProt P49760 (whole entry, looked up): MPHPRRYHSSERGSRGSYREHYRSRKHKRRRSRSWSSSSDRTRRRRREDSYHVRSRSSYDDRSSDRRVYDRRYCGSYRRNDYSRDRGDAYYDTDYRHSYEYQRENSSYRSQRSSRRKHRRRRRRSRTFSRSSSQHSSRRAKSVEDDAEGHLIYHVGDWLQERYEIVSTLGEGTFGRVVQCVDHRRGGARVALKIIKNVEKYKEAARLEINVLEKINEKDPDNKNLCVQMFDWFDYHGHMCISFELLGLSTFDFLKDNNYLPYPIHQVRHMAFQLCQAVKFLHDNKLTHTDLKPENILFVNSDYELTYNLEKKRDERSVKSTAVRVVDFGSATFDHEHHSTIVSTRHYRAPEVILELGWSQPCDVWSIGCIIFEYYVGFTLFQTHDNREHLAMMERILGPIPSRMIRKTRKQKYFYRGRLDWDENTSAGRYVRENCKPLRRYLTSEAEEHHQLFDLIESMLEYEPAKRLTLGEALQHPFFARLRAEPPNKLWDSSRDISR
Chain of UniProt O15146 (whole entry, looked up): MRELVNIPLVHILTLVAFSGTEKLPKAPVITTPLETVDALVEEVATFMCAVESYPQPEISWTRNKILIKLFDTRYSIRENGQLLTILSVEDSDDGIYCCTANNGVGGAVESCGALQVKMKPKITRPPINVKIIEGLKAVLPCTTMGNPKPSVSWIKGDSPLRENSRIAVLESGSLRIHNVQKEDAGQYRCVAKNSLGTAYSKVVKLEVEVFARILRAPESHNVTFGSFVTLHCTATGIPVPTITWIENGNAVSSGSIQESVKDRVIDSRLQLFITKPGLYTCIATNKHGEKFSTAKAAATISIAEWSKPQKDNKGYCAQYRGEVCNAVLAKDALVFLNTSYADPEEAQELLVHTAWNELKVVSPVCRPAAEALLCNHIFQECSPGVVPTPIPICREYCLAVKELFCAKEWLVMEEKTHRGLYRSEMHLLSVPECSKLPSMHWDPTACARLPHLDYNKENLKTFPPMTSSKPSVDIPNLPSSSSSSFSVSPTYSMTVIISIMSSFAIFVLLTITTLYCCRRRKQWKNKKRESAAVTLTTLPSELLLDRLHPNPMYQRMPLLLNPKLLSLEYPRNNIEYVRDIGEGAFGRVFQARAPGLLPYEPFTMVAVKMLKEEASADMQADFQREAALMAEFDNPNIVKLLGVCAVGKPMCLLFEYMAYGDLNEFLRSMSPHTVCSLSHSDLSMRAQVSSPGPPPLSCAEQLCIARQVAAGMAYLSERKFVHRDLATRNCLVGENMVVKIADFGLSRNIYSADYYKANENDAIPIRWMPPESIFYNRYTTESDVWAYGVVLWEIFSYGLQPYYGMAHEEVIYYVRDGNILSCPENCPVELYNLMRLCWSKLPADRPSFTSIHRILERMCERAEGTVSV
Chain of UniProt P53778 (whole entry, looked up): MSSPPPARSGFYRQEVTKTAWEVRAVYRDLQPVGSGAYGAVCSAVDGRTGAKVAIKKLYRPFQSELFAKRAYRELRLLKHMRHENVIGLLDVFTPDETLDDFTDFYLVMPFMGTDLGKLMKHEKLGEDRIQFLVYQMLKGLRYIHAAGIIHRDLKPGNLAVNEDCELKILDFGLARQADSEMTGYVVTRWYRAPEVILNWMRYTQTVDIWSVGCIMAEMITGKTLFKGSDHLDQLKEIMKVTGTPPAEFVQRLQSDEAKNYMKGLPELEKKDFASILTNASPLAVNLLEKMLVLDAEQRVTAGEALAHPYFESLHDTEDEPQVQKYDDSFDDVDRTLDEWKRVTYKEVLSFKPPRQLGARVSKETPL
Chain of UniProt Q00535 (whole entry, looked up): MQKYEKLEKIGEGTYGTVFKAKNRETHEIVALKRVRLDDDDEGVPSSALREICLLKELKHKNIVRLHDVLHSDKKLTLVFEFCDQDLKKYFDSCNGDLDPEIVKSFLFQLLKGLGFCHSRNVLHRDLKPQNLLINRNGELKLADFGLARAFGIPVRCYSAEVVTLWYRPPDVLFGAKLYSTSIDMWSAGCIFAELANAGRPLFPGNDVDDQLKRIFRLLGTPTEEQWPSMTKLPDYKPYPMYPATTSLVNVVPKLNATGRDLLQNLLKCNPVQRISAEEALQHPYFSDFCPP

Block 1 — mode: agonist; measurement: EC50
Target: Beta-1 adrenergic receptor (ADRB1, Homo sapiens, UniProt P08588)
Chain of UniProt P08588 (whole entry, looked up): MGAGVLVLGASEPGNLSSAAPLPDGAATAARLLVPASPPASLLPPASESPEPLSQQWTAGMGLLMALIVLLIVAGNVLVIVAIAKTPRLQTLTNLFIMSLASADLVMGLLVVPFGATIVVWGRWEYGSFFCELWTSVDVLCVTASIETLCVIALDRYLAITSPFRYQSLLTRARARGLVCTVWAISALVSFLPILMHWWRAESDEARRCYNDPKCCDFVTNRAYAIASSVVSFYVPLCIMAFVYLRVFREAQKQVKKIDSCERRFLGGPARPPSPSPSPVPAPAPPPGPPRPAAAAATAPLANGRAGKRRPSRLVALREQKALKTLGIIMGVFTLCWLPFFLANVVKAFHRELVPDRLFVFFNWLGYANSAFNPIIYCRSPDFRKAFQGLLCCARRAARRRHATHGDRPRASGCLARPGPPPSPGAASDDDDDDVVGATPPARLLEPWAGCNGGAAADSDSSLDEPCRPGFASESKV
Ic1ccc(Nc2nc(NCCN3CCOCC3)nc(N3CCOCC3)n2)cc1: ≥ 100 µM
CCOc1ccccc1N1CCN(C(=O)C2CNCCO2)CC1 (stereo not shown): 15.8 µM
Clc1ccccc1-c1cc(C2CCN(Cc3cc4n(n3)CCNC4)CC2)[nH]n1: ≥ 100 µM
COc1ccc([S+](=O)([O-])N2CCN(c3ccccc3OC)CC2)cc1C: ≥ 100 µM
Cn1cc(-c2cnc(Nc3cccnc3)c3c2CCO3)cn1: ≥ 100 µM
Cc1ccc(-c2cc(-c3cccnc3)nc3c(C)noc23)c(C)c1: ≥ 100 µM
Cc1noc2c(-c3cccc(O)c3)cc(-c3cccs3)nc12: ≥ 100 µM
COC(=O)c1c(OC)cc2c(c1C)Oc1c(Cl)c(O)c(Cl)c(C)c1C(=O)O2: ≥ 100 µM
COCCNCc1ccc(-c2cc3nccc(Oc4ccc(NC(=O)C5(C(=O)Nc6ccc(F)cc6)CC5)cc4F)c3s2)nc1: 14.1 µM
COc1ccccc1N1CCC(N2C(=O)N3CCCC3(C)C2=O)C1 (stereo not shown): ≥ 100 µM

Block 2 — observed: enzyme activity; mode: inhibitor; concentration: 10 µM; measurement: inhibition
Target: Calcium/calmodulin-dependent protein kinase type II subunit alpha (CAMK2A, Homo sapiens, UniProt Q9UQM7)
Chain of UniProt Q9UQM7 (whole entry, looked up): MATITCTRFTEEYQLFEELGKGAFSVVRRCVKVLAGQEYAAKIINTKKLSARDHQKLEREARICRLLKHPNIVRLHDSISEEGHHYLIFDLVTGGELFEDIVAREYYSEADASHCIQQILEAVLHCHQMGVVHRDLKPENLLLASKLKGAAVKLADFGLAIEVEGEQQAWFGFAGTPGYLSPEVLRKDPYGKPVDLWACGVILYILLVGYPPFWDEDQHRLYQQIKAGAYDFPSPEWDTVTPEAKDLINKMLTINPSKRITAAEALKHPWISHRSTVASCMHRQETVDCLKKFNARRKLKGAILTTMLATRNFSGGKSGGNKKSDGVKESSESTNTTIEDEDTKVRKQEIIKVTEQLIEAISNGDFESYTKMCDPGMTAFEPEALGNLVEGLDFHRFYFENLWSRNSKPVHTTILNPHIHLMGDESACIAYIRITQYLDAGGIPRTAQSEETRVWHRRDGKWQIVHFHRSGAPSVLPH
CC(=O)Oc1ccccc1C(=O)O: -0.06% and -0.03%
O=C1CN2Cc3c(ccc(Cl)c3Cl)N=C2N1: -1%
CC1(C)[C@H](OC(=O)c2ccccc2)CC[C@]2(C)C3=C([C@@H](O)C[C@@H]12)[C@@]1(C)CC[C@@]2(C)CC[C@@](C)(COC(=O)c4ccccc4)C[C@H]2[C@]1(C)CC3: 0%
COc1ncnc(NS(=O)(=O)c2ccc(N)cc2)c1OC: -4%
CCNC(=O)CC[C@H](N)C(=O)O: 7%
O=c1ccc2cc(O)c(O)cc2o1: -26%

Block 3 — observed: enzyme activity; mode: inhibitor; concentration: 0.5 µM; baseline: control; measurement: remaining activity
Target: Focal adhesion kinase 1 (PTK2, Homo sapiens, UniProt Q05397)
Chain of UniProt Q05397 (whole entry, looked up): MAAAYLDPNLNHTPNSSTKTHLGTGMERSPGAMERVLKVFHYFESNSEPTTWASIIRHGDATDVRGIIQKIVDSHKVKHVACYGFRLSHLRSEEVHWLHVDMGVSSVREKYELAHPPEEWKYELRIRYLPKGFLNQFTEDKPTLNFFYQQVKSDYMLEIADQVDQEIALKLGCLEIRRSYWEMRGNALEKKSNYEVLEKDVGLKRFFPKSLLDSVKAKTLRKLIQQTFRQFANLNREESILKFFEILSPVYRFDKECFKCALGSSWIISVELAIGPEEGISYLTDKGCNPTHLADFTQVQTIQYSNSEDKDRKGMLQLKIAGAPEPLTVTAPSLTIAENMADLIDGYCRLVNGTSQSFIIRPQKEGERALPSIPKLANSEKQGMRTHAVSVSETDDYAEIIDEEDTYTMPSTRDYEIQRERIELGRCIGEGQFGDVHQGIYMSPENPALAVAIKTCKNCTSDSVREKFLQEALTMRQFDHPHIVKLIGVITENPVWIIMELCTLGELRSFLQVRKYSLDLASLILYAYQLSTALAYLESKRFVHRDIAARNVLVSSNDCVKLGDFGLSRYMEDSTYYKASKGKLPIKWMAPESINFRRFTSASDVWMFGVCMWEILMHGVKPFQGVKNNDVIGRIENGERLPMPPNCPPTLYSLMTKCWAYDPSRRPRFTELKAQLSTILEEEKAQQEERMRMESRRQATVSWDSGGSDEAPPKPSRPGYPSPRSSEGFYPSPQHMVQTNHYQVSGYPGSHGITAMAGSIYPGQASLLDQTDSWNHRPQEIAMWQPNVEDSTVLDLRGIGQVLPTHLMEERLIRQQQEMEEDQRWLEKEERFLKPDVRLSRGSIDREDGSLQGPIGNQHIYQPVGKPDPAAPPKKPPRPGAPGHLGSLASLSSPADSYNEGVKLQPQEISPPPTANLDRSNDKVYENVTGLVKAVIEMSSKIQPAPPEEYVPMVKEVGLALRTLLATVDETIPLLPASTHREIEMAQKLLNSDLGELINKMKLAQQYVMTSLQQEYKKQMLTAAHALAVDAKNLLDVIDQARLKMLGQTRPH
COc1cc2c(cc1OC)-c1[nH]nc(Nc3cccc(F)c3)c1C2: 88.2%
Cn1nc2c3c(cccc31)C(=O)c1ccccc1-2: 92.8%
O=c1cc(-c2cccc3c2Sc2ccccc2S3)oc(N2CCOCC2)c1: 113%
O=C(NC(NC(=S)Nc1ccc(F)c([N+](=O)[O-])c1)C(Cl)(Cl)Cl)C(c1ccccc1)c1ccccc1 (stereo not shown): 113%
CCN(CC)CCNC(=O)c1c(C)[nH]c(/C=C2\C(=O)Nc3ccc(Cl)cc32)c1C: 25.8%
Nc1cccc(-c2cc3c(Oc4cccc(O)c4)ncnc3[nH]2)c1: 88.4%
O=C(Nc1cccc(Nc2nccc(Nc3cccc(C(F)(F)F)c3)n2)c1)C1CC1: 89.1%
C[C@@H]1CCN(C(=O)CC#N)C[C@@H]1N(C)c1ncnc2[nH]ccc12: 103%
c1ccc(-c2cnc(Nc3ccc(OCCN4CCCC4)cc3)s2)cc1: 98.3%
CCN(CC)C(=O)c1ccc(Nc2nc(OCC3CCCCC3)c3[nH]cnc3n2)cc1: 76.9%
O=C1c2ccccc2-c2n[nH]c3cccc1c23: 64.8%
O=C1C(Cl)=C(N2C(=O)CCC2=O)C(=O)c2ccccc21: 98.4%
N#Cc1c(NC(=O)c2cccc3ccccc23)sc2c1CCCC2: 101%
c1ccc(-c2[nH]ncc2-c2ccnc3ccccc23)nc1: 99.3%
Cc1cn(-c2cc(NC(=O)c3ccc(C)c(Nc4nccc(-c5cccnc5)n4)c3)cc(C(F)(F)F)c2)cn1: 107%
CN([C@@H](Cc1ccc(OS(=O)(=O)c2cccc3cnccc23)cc1)C(=O)N1CCN(c2ccccc2)CC1)S(=O)(=O)c1cccc2cnccc12: 104%
COc1cc2ncnc(Nc3ccc(O)c(Br)c3)c2cc1OC: 99.5%
N#C/C(=C\c1ccc(O)c(O)c1)C(=O)NCc1ccccc1: 96.9%
Cc1cc2ncc(-c3ccccc3)nc2cc1C: 92.5%
CN(C)C[C@H]1CCn2c(c(C3=C(c4cn(C)c5ccccc45)C(=O)NC3=O)c3ccccc32)C1: 95.9%
Cc1nc2cc3nc(-c4cccs4)cnc3cc2n1C: 117%
CCOc1nc(NC(=O)Cc2cc(OC)ccc2OC)cc(N)c1C#N: 97.6%
COc1cc2ncnc(Nc3cccc(Cl)c3)c2cc1OC: 95.1%
Ic1cccc(CSc2nnc(-c3ccncc3)o2)c1: 106%

Block 4 — observed: cell-free assay; method: competition with immobilised ligand; concentration: 1 µM; measurement: remaining binding
Compound: CCCCN(CCCC)C(=O)CN1C[C@H](c2cc(OC)c3c(c2)OCO3)[C@@H](C(=O)O)[C@@H]1CC(C)(C)CCC
CLK2 (Homo sapiens, UniProt P49760): 100%
CDK5 (Homo sapiens, UniProt Q00535): 100%
Macrophage colony-stimulating factor 1 receptor, autoinhibited (CSF1R, Homo sapiens, UniProt P07333): 43%
CSF1R (Homo sapiens, UniProt P07333): 100%
PIP5K1C (Homo sapiens, UniProt O60331): 65.9%
PIP5K1A (Homo sapiens, UniProt Q99755): 100%
NEK3 (Homo sapiens, UniProt P51956): 99.1%
Tyrosine-protein kinase ABL1, non-phosphorylated (ABL1, Homo sapiens, UniProt P00519): 96.5%
RIPK4 (Homo sapiens, UniProt P57078): 85.5%
ROCK1 (Homo sapiens, UniProt Q13464): 90.4%
EGFR (Homo sapiens, UniProt P00533, del747-750/T751S): 95.6%
MUSK (Homo sapiens, UniProt O15146): 100%
ERN1 (Homo sapiens, UniProt O75460): 70.6%
MAPK12 (Homo sapiens, UniProt P53778): 100%
PRKCQ (Homo sapiens, UniProt Q04759): 100%

A few entries again (block 3):
Cn1nc2c3c(cccc31)C(=O)c1ccccc1-2: 92.8%
O=c1cc(-c2cccc3c2Sc2ccccc2S3)oc(N2CCOCC2)c1: 113%
O=C(NC(NC(=S)Nc1ccc(F)c([N+](=O)[O-])c1)C(Cl)(Cl)Cl)C(c1ccccc1)c1ccccc1 (stereo not shown): 113%
CCN(CC)CCNC(=O)c1c(C)[nH]c(/C=C2\C(=O)Nc3ccc(Cl)cc32)c1C: 25.8%
Nc1cccc(-c2cc3c(Oc4cccc(O)c4)ncnc3[nH]2)c1: 88.4%
O=C(Nc1cccc(Nc2nccc(Nc3cccc(C(F)(F)F)c3)n2)c1)C1CC1: 89.1%
C[C@@H]1CCN(C(=O)CC#N)C[C@@H]1N(C)c1ncnc2[nH]ccc12: 103%
c1ccc(-c2cnc(Nc3ccc(OCCN4CCCC4)cc3)s2)cc1: 98.3%
